# Measurements gathered from unrelated publications.
# Parts stem from different laboratories: compare values within a part only.
# Sequence of UniProt Q8NG66 (whole entry, looked up): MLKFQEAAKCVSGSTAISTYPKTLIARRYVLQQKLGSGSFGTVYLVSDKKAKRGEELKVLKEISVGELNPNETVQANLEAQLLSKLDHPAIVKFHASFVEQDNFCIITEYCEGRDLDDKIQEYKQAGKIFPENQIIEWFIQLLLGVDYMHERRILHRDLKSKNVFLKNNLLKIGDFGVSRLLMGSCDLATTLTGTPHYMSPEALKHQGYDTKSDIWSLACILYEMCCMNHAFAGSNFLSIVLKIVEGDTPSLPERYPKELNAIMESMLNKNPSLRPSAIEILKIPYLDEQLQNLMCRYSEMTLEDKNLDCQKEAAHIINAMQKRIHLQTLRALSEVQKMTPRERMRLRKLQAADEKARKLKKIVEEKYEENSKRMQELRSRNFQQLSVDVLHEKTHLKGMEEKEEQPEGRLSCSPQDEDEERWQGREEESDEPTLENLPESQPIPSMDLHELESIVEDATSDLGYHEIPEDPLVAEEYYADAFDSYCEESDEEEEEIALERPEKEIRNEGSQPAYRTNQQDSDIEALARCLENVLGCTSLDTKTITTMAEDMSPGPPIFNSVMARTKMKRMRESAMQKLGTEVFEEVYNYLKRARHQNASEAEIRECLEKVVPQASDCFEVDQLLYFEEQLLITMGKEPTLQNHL

# Block 1
# Target: Sal-like protein 4, full length isoform B (SALL4, Homo sapiens, UniProt Q9UJQ4-2, residues 1-616)
# Technique: universal PBM
# Form: double-stranded DNA, one strand shown
# Medium: in vitro
# Concentration: not given
# Setting: 8-mer, flanks averaged, mean of replicates
# Direction: higher = stronger binding
Oligonucleotide,E-score
CAGGTCGG,-0.324
CTGGTTTC,-0.164
CGGGGGAG,-0.202
GGCCCGAA,-0.289
CACTCGCA,-0.184
CGTTTCAC,-0.0788
AAAGTTAG,0.0698
CATCCTAA,0.115

# Block 2
# Target: Phosphate system positive regulatory protein PHO4, full length, GST-tagged (PHO4, Saccharomyces cerevisiae, UniProt P07270, residues 1-312)
# Technique: competition protein-binding microarray
# Form: double-stranded DNA, one strand shown
# Medium: in vitro
# Concentration: 2 µM
# Setting: whole 60-bp probe, lowest competitor level
# Together with: Cbf1 competitor, 0.05 µM
# Direction: higher = stronger binding
# Shared flanks, not repeated: … GTCTTGATTCGCTTGACGCTGCTG
# Construct (chain): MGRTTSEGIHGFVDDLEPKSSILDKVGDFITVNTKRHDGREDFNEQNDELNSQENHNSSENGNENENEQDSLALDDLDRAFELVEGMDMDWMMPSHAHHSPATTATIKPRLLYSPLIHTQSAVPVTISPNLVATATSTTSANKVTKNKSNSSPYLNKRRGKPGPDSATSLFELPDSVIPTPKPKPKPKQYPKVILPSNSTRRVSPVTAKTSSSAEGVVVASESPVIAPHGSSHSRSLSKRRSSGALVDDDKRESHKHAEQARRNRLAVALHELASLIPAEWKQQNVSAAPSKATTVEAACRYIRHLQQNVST
Oligonucleotide,fluorescence intensity
GTCAGTATCTTCCATCACATGACAATCTTGTGCATC,8390 a.u.
ATAGCATCAACCGCACACATGATTAGGATGTAGACG,8740 a.u.
AGAATGGGCGCTTGTCGCGTGCCAGATCGGGGTTCA,8200 a.u.
AAAGCGGTAATTTGTCACAAAACTTCACATATCTAT,3430 a.u.
AAATTACTAAGTTGTCTGGTGGGTGACGCCGTATGA,4090 a.u.
AAAGCGGTAATTTGTGTCGTGGGTGCAGATATCTAT,6100 a.u.
CTTTCCCGATCTTTTCACGTGACATTAGCACATTTG,10400 a.u.
AGGCGCGCGCAAAAGCACGCACGGATTGACCGGAGC,8020 a.u.

# Other studies, line by line
Molecule,target or system,assay,test system,setting,scale,measurement,result
O=c1cc(-c2cccc3c2Sc2ccccc2S3)oc(N2CCOCC2)c1,"NEK11 (Homo sapiens, UniProt Q8NG66)","enzyme activity, inhibitor",,0.5 µM,baseline: control,remaining activity,88.5%
"PTBP1 (Homo sapiens, UniProt P26599)","MATR3 (Homo sapiens, UniProt P43243)",cross-linking MS,cell fractions,together with: DSSO,,cross-linked residues,K454 to K391

# A few entries again (block 2):
Oligonucleotide,fluorescence intensity
CTTTCCCGATCTTTTCACGTGACATTAGCACATTTG,10400 a.u.
AGGCGCGCGCAAAAGCACGCACGGATTGACCGGAGC,8020 a.u.
